Published values of several laboratories.
Lines come from different studies, so protocols differ. Numbers after ± are the reported error.
MAP2K2: Dual specificity mitogen-activated protein kinase kinase 2 (MAP2K2, Homo sapiens, UniProt P36507)
Chain of UniProt P36507 (whole entry, looked up): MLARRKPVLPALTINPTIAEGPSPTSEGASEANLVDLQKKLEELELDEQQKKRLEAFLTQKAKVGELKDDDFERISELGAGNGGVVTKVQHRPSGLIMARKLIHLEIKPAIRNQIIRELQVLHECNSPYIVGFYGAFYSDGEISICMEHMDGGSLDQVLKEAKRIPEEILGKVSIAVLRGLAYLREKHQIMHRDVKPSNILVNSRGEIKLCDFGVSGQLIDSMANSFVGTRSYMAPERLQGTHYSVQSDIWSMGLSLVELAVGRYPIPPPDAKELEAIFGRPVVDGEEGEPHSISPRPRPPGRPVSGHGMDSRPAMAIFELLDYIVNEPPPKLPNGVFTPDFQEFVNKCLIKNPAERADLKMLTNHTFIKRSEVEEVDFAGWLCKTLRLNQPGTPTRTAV
PASK: PAS domain-containing serine/threonine-protein kinase (PASK, Homo sapiens, UniProt Q96RG2)
Chain of UniProt Q96RG2 (whole entry, looked up): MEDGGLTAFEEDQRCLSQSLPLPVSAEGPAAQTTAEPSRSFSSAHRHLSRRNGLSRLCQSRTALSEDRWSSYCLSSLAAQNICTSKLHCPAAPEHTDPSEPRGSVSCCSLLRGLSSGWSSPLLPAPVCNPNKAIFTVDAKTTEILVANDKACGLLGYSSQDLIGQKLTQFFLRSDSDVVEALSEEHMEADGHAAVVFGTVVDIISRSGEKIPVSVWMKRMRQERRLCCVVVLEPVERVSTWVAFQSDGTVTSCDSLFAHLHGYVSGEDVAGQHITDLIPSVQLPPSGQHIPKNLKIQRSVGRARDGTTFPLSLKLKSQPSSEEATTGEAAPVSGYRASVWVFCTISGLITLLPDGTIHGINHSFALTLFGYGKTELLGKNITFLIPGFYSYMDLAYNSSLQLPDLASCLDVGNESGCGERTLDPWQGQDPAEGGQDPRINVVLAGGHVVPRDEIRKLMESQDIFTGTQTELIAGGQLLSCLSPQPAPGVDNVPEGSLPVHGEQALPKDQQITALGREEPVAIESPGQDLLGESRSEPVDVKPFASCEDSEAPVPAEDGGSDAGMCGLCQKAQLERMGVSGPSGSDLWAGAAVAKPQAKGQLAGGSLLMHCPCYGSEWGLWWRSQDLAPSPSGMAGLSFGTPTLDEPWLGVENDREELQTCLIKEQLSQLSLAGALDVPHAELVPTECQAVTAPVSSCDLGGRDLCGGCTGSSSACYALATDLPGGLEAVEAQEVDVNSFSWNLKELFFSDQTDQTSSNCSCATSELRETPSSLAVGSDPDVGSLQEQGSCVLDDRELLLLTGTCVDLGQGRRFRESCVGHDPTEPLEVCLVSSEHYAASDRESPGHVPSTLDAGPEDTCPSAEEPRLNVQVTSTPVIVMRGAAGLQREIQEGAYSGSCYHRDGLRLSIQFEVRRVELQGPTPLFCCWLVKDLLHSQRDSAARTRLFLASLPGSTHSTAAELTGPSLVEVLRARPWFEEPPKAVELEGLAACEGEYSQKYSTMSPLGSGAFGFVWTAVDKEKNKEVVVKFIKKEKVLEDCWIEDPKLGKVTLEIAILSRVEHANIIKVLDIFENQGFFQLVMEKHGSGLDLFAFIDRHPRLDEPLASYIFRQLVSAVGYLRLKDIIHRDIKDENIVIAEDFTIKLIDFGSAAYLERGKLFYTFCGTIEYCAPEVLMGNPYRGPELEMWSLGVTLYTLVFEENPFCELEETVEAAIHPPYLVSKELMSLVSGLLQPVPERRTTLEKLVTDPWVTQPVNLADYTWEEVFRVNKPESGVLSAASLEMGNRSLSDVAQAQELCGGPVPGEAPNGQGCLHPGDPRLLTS
Chain of UniProt Q86Z02 (whole entry, looked up): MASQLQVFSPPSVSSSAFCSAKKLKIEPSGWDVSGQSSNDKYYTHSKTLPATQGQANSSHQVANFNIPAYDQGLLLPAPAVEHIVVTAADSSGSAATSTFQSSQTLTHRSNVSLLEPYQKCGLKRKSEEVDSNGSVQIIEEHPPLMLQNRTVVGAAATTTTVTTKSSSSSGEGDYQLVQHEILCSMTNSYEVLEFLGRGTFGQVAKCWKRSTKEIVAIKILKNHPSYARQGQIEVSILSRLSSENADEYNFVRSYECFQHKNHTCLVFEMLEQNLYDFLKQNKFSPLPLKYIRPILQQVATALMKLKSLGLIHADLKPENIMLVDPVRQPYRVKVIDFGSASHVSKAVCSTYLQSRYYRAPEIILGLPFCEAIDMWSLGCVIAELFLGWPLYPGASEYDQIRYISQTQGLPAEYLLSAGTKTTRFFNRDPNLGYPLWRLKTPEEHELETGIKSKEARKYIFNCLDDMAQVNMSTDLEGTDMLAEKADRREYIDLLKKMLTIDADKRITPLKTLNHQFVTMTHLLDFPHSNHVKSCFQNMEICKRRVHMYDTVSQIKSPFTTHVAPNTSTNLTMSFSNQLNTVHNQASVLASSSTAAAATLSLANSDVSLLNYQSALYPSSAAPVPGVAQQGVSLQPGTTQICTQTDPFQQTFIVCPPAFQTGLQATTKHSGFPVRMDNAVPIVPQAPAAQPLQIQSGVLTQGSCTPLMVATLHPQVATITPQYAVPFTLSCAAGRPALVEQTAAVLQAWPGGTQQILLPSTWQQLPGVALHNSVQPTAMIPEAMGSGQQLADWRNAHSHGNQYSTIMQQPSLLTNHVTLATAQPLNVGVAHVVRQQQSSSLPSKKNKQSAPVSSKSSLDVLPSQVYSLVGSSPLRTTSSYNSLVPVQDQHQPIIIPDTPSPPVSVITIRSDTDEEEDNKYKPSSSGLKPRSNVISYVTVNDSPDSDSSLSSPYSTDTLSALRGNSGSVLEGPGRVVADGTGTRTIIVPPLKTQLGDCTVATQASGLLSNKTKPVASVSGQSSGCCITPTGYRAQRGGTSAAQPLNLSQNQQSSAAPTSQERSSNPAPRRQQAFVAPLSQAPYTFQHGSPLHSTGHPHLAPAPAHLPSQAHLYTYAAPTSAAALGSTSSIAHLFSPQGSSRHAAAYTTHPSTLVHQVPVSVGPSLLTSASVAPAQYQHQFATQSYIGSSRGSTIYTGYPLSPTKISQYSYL
Chain of UniProt P30530 (whole entry, looked up): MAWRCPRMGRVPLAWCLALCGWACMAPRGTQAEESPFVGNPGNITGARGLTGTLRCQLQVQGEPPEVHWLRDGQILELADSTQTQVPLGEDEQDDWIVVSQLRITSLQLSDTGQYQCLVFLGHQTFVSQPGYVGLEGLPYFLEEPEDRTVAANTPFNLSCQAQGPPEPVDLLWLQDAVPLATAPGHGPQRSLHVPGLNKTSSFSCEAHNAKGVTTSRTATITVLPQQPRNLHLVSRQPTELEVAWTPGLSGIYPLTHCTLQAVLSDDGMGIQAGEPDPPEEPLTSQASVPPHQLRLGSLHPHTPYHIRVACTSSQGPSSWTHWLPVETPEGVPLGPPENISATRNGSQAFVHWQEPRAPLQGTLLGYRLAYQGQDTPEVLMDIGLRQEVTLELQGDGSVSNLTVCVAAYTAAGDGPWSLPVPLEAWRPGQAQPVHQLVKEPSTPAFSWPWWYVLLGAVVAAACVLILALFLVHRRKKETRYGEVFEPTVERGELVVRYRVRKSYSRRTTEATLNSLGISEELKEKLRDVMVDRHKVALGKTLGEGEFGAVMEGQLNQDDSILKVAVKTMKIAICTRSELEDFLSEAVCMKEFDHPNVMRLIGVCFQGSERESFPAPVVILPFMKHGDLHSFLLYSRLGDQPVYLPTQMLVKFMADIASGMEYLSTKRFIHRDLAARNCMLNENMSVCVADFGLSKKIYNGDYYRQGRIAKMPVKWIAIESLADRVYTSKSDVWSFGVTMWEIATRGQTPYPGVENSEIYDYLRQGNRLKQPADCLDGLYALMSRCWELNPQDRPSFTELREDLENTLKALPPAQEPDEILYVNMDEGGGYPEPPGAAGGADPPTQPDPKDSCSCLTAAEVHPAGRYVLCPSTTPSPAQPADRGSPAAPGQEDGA
Chain of UniProt Q9UBF8 (whole entry, looked up): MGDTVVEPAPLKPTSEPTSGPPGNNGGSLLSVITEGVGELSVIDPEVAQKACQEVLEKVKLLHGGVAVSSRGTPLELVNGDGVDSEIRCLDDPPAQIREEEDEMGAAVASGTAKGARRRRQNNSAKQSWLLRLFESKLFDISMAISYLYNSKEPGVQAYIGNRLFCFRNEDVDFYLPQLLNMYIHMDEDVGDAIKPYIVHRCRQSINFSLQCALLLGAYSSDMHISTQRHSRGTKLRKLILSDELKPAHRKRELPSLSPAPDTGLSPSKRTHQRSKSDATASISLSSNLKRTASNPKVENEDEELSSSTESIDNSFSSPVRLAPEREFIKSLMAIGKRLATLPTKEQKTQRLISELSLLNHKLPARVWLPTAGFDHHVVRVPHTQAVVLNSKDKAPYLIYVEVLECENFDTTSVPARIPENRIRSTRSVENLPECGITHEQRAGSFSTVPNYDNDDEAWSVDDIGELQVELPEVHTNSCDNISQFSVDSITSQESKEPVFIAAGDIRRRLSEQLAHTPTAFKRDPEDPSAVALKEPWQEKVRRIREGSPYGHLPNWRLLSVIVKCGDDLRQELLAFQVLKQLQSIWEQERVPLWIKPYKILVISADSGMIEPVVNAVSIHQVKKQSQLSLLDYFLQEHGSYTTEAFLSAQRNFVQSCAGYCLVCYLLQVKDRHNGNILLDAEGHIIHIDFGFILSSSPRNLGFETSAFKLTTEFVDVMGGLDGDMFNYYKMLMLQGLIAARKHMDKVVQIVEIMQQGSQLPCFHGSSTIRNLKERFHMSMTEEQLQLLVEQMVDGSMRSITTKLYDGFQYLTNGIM
Chain of UniProt P11309 (whole entry, looked up): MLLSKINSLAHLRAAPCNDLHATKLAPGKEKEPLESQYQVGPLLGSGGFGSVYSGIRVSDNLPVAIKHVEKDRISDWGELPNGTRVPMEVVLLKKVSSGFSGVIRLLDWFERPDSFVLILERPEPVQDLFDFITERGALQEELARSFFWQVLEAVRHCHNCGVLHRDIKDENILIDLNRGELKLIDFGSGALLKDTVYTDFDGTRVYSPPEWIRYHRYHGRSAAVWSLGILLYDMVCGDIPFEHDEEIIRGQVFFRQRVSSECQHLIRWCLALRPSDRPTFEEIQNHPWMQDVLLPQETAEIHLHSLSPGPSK

SMILES | target | assay | conditions | how to read | remaining activity [%]
COc1cc(N2CCN(C)CC2)ccc1Nc1nc(N)n(C(=S)NCc2c(Cl)cccc2Cl)n1 | Phosphatidylinositol 4-kinase beta (PI4KB, Homo sapiens, UniProt Q9UBF8) | enzyme activity | 10 µM | reference: control | 12
O=C1NC(=O)/C(=C/c2ccc(-c3ccc(F)cc3O)o2)S1 | Homeodomain-interacting protein kinase 1 (HIPK1, Homo sapiens, UniProt Q86Z02) | enzyme activity | 10 µM |  | 29
COc1cc(Nc2ncc3c(n2)-c2ccc(Cl)cc2C(c2c(F)cccc2OC)=NC3)ccc1C(=O)O | EPHB1 | kinase activity | 1 µM |  | 17
COc1cc(-c2cncc3c2CN(C)Cc2cc(N4CCNCC4)ccc2-3)cc(OC)c1OC | Serine/threonine-protein kinase Nek1 (NEK1, Homo sapiens, UniProt Q96PY6) | kinase activity | 1 µM, human enzyme, added: ATP 10 µM | reference: DMSO control | 112
C=CC(=O)N1CCC[C@@H](n2nc(-c3ccc(Oc4ccccc4)cc3)c3c(N)ncnc32)C1 | MAP2K2 | kinase activity, inhibitor, HotSpot radiometric | 100 nM, added: ATP 10 µM |  | 91 ± 0.4
CNc1ncc2c(/C=C/C(=O)N3CCC(OC)CC3)nn(Cc3cccc(C(F)(F)F)c3)c2n1 | PASK | kinase activity, inhibitor | 1 µM | reference: untreated control | 97
O=C(NC1CCC1)c1ccc2nc(-c3cccc(NS(=O)(=O)NCCN4CCCCC4)c3)cn2c1 | Serine/threonine-protein kinase pim-1 (PIM1, Homo sapiens, UniProt P11309) | enzyme activity | 10 µM |  | 100
COc1ccc(F)cc1C(=O)NCc1ccc(-c2nn([C@@H](C)C(F)(F)F)c(N)c2C(N)=O)cc1 | MAP2K2 | kinase activity, inhibitor, HotSpot radiometric | 100 nM, added: ATP 10 µM |  | 67.8 ± 0.2
COc1cc(F)ccc1-c1ncnc(Nc2cccc(C[S@](C)(=N)=O)c2)n1 | PASK | kinase activity | 10 µM, added: 10 µM ATP |  | 89
O=C(O)c1ccc(Nc2ncc3c(n2)-c2ccc(Cl)cc2C(c2c(F)cccc2F)=NC3)cc1 | LKB1(h) | kinase activity | 1 µM |  | 101
C=CC(=O)N1CCC[C@@H](n2nc(-c3ccc(Oc4ccccc4)cc3)c3c(N)ncnc32)C1 | Proto-oncogene tyrosine-protein kinase receptor Ret (RET, Homo sapiens, UniProt P07949) |  | 1 µM |  | 121
Cc1cc(Nc2cc(N3CCN(C)CC3)nc(Sc3ccc(NC(=O)C4CC4)cc3)n2)[nH]n1 | Tyrosine-protein kinase receptor UFO (AXL, Homo sapiens, UniProt P30530) | kinase activity, KinaseProfiler | 0.03 µM, species human | reference: control | 76

For quick reference, copied from above:
SMILES | target | assay | conditions | how to read | remaining activity [%]
COc1cc(Nc2ncc3c(n2)-c2ccc(Cl)cc2C(c2c(F)cccc2OC)=NC3)ccc1C(=O)O | EPHB1 | kinase activity | 1 µM |  | 17
